Measured values of several laboratories.
Numbered parts are unrelated; each lists some results of a single study.

Set 1
Target: RNA binding protein fox-1 homolog 2, RRM domain, GST-SBP tag (RBFOX2, Homo sapiens, UniProt O43251-10, residues 100-194)
Method: RNA Bind-n-Seq
Form: RNA
Matrix: in vitro
Tested at: 365 nM
Notes: natural RNA segment, single round, ends assumed
Reference: no-protein control
Direction: higher = stronger binding
Constant ends, left off below: GGGAGUUCUACAGUCCGACGAUC … UGGAAUUCUCGGGUGCCAA
Residues (chain): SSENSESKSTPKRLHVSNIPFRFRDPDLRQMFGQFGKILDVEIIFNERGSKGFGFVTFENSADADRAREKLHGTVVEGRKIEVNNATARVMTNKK
| Sequence | RBNS enrichment (R) |
| --- | --- |
| CUCUGUGCUAAGUUUUAGAACAGUUUAGAACCAUGCAGGGAUGCCGAGAGUCUGGAGUUAGCCCAGUGUUAGGGUAGGAAGGUAGUGGCAGCUUUCCAAAGGGCCUAAAA | 0.682 |
| UGGAUGAAGCCUGAGAGGCCAGAUUCCCUGUCACCUCUGCCCAGCUCAGCUGGAUCAGGCAUCUACACACCCCAUUCUUCCAGGGGCCAGUGUCCACACCUGCAUGUAGG | 3.28 |
| CACAAGAAGAGAAACAGUAACCUCACUUUGAAAAUUAGCUCCACUCAAGACUAGUCCACGAACGAGACCCGCCUUUUCUACACAGGAUCCAAGGUCACGAGAAGCAGCCA | 0.34 |
| GCAUUUCCCUGAGAGCAGUGGGAGAGGCCCUCUGAGUUGGAAGUUGAGCUCCACCUCCUUUCCAAGUGAGCACUCAGUGUUGAAUCACAGUUACAACCCACUGGGGCUGG | 1.19 |
| AAGAACUGUUUGCAUAAUUUUCUGAAUUUUGAGCACUUUGUGCUAUAUAAGGACCCAUAUUUAAGCUUUGUGUGCAGUAAGAAAGUGUAAAGCCAAUUCCAGUGUUGGAC | 1.34 |
| GUAUUUCUCCAUCUCCAGUUCUGGACAGUGCAGGUUGCCAAGAAAAGGGACCUAGUUUAGCCAUUGCCCUGGAGAUGAAAUUAAUGGAGGCUCAAGGAUAGAUGAGCUCU | 0.652 |
| CCCUAGAGUCAUGCCUGGAUCCACAACUCCACAGGUAUCUGCAGCAUUUUCUACCUGGCCCUAUCGCUGAGAGCCCCUCCCCAUGGCUCACUGAGGAGCACUCAGCCAGC | 0.735 |
| UCAGCUUUUGAAGUCUGGGCAGUUGACAAAGACCAGCCUGGUCCUAGUUAAUGGUAGAAUACUCCCAAAACUUGGAGAAAGAACUGCUCUCUGAAGCUAUCAGAAAUACC | 0.241 |

Set 2
Target: RING finger protein unkempt homolog, zinc fingers 1-6, SBP tag (UNK, Homo sapiens, UniProt Q9C0B0, residues 30-357)
Chain of UniProt Q9C0B0 (30-357, looked up): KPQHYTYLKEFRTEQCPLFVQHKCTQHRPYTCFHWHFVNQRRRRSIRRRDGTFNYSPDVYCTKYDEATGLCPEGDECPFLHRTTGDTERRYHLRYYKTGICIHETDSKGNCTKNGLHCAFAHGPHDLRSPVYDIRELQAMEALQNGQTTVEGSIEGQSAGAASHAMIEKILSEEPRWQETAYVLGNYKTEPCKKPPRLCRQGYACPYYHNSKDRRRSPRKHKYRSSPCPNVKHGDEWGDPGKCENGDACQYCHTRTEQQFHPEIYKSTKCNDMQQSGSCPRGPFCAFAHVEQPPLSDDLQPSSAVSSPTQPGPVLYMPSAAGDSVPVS
Method: RNA Bind-n-Seq
Form: RNA
Matrix: in vitro
Tested at: 100 nM
Notes: RNA with constant flanks, vertebrate orthologous sites, ends assumed
Reference: input RNA pool
Direction: higher = stronger binding
Constant ends, left off below: GGGAGUUCUACAGUCCGACGAUC … CAACAGAGGAUUGAGCAUCA
| Sequence | bound/input enrichment |
| --- | --- |
| GGUUUUUAAAGCUAUUCUUUCACCUUUCCAGUAAAUAAUGGACGAUCUUUUUUAAAAAAAUGUUGUUUUAAUAAUGUGGGUAGACUAUAAAUGUAUUUGUUGAAUUUAUUCAUUUUUUAA | 0.532 ratio |
| CUGUUGUUAAGCACUGUGUUCCAGACCGUGUCUGACUUUAGUGUAACCUAGGAGAUUUUAUAGUUUUAUUUUAAUGAAAUCCUGCUUGACGCAGAACAGCGGGGAGAGCAGUGUCUUCUA | 2.04 ratio |
| AGCUAGUUCUUAAGAACCAACGUUUGUAAAAGAUGUAGGCAAAAAGUUUACAGCCUAAUCUAGUUUAUGAAAACAACUUGUGCUAGAAUACUUUUCUUAAAAAAGUAUUUUUGAAUACCA | 0.399 ratio |
| AGAAAAUUUUAACCAAGAAUCUGAAGGUAGAAAUACAGGACCCUGGUUAUCUUCCUCACUUAGAAAUAGAUGCACACCUUUGUUCUCUAGAAGGAGGCGAGAGGGACGAGAUGAAUCUUC | 0.719 ratio |
| GGGACGCUUUGAUGUAAAAAUUGAAGUUAAAAGCUGAUCACAAGCACAGAUCUUUCCCACUAGCCAUUUAAAAUGUUAAAAAAAAAAAAAAAAGAUAAACCUACUAGUCUUGAACAAACU | 3.21 ratio |
| AGUUUGUUUCUAAUUUCAAGCAAAAAAAAUCUUAUUGUACUUGAAUGUGUCCUGUUUUGUUAGCACACCUAGACUUGCUGUAACUGUACUCAUGUCCCAGUAUGUACGUUCUUUCUAUGA | 0.534 ratio |
| UAGUACUUAAGCCAACAACAGUUCUAAAAUGCUAUUUAUUUGUGUCUGUAAGAUUGUACAUAUACUACCAACCUCAUACUGUUGUGGAUUUUUUUUCUCACAAGCUUGAGUUUAGGUUUU | 0.507 ratio |
| GACAGGGCCCAGGCCCCCGCCACUCAGAGUGGCCCACUGGCCACUUCAGCCAGGGCAUUUUGGCUCCGUUUUUUAUUUUAACAGUGCCCUUAUUAUCCGUGUGUAUAUGCCUGCGAUUUG | 0.665 ratio |

Set 3
Target: Phosphate system positive regulatory protein PHO4, full length, GST-tagged (PHO4, Saccharomyces cerevisiae, UniProt P07270, residues 1-312)
Chain of UniProt P07270 (whole entry, looked up): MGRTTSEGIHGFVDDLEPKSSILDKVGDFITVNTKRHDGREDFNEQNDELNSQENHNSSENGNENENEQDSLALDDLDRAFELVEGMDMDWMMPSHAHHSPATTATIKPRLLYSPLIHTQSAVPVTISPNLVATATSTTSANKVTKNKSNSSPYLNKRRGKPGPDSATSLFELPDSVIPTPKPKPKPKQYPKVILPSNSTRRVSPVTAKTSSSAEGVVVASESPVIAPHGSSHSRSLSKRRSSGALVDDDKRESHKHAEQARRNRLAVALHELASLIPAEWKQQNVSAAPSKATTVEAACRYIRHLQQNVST
Method: competition protein-binding microarray
Form: double-stranded DNA, one strand shown
Matrix: in vitro
Tested at: 2 µM
Notes: whole 60-bp probe, lowest competitor level
With: Cbf1 competitor, 0.05 µM
Direction: higher = stronger binding
Constant ends, left off below: … GTCTTGATTCGCTTGACGCTGCTG
| Sequence | fluorescence intensity [a.u.] |
| --- | --- |
| CAATAGCAGCGGCGGCATGATCTTGAGTCGAATAGA | 5350 |
| CCGAAGCAAATGATGGCCGTGACGGCAGCACAATAG | 5710 |
| TGCGCAACAACTTGGATTGTGGGTGTATGTCTAGAA | 4750 |
| CTTCTGTAAATTTGGGCGGTGGGTGGACGCGCCCCG | 4440 |
| TTGAATGTAGTTGATCGCGTGTCTGTTGGCCAAATC | 7340 |
| AGACCAGATGGGGTCCACGTTATCAACGTTGGTAAG | 9330 |
| CTTTCCCGATCTTTTCACGTGCAGTTAGCACATTTG | 13800 |
| TGCATTTGCTTATTGAACGTGAAGTGGAATTGGGGC | 7180 |
| TGCGCAACAACTTGACACGTGGGTGTATGTCTAGAA | 20100 |
| TGAAAAATCTGAGACAACGTGCCAGTTTGTAAGTGC | 15100 |
| CCAAAGGGTCCCCATCACGTCTGGTCCGGGCTTTCC | 3690 |
| AAAGCGGTAATTTGATGTGTGGGTGCAGATATCTAT | 5600 |
| AAATTACTAAGTTGGTCCGTGGGTGACGCCGTATGA | 7180 |
| TGCGCAACAACTTGTCGGGTGGGTGTATGTCTAGAA | 4650 |
| CTTCTGTAAATTTGCTTGGTGGGTGGACGCGCCCCG | 3870 |
| GTCTTGTCTCATTGGCCCGTGGGTGTCCCCACTTCA | 10300 |
| GATATCACCAGCTGGCACGTCAGTGTCTTGACCAAT | 5200 |
| TTGCATAGTCAGTGTGGCGTGCAAACTCCACAGAAT | 6950 |
| CTTTCCCGATCTTGTCACCGGACTTTAGCACATTTG | 3550 |

Set 4
Target: Histone acetyltransferase KAT6A, both winged helices, GST fusion (KAT6A, Homo sapiens, UniProt Q92794, residues 1-181)
Method: protein binding microarray
Form: double-stranded DNA, one strand shown
Matrix: in vitro
Tested at: not given
Notes: 8-mer, flanks averaged, mean of 2 arrays, mostly near background
Reference: not given
Direction: higher = stronger binding
Construct (chain): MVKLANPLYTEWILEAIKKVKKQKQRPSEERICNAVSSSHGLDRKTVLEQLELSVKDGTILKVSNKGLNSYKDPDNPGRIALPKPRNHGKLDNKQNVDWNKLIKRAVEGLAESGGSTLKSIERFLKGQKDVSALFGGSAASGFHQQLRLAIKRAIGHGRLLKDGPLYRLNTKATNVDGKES
| Sequence | E-score |
| --- | --- |
| GTTTAAAA | -0.102 |
| ACCAGTAG | -0.134 |
| AACATCTA | -0.0914 |
| CTCCGAGA | 0.00358 |
| ACTGAACC | 0.07 |
| AGCGTGAT | 0.0974 |
| CGGCTGAC | 0.178 |
| CCACCCGC | 0.223 |
| ACCTCTAA | -0.0251 |
| AGAAAGCA | -0.136 |
| CACACGGC | 0.289 |
| CGCATGGC | 0.169 |
| CTTAGTTA | -0.0602 |
| AAGCGTAA | 0.173 |
| AGTTTGGA | -0.133 |
| CGCGGCAG | 0.368 |
| AACTTCAG | -0.0766 |
